Assay results gathered from unrelated publications.
Protocols differ between the studies behind these lines. ± gives the spread as reported.

| Compound | test | system | conditions | scale | quantity | result |
| --- | --- | --- | --- | --- | --- | --- |
| CO[C@H]1C[C@@H]2CC[C@@H](C)[C@@](O)(O2)C(=O)C(=O)N2CCCC[C@H]2C(=O)O[C@H]([C@H](C)C[C@@H]2CC[C@@H](OC(=O)NCCOCCOCCOCCOCCOCCOCCOCCOCCC(=O)N3CCc4cc(Cn5nc(-c6ccc7oc(N)nc7c6)c6c(N)ncnc65)ccc4C3)[C@H](OC)C2)C[C@@H](O)[C@H](C)/C=C(\C)[C@@H](O)[C@@H](OC)C(=O)[C@H](C)C[C@H](C)/C=C/C=C/C=C/1C | phase 1 dose escalation, refers to: mucositis | advanced solid tumour patients | intravenous, 16 mg weekly, any grade |  | dose-reducing adverse events | 25% |
| NCCCC[C@@H]1NC(=O)[C@@H](Cc2c[nH]c3ccccc23)NC(=O)[C@H](c2ccccc2)NC(=O)[C@@H]2C[C@@H](OC(=O)NCCN)CN2C(=O)[C@H](Cc2ccccc2)NC(=O)[C@H](Cc2ccc(OCc3ccccc3)cc2)NC1=O |  | healthy volunteers | subcutaneous, 600 µg twice daily, day 5, 3.00 h |  | QTcI change from baseline | 6.3 ms |
| O=C(Nc1ccccc1)C1CCN(C(=O)Oc2cccnc2)CC1 | refers to: Vertigo | healthy female human | concentration not given, all doses pooled |  | adverse event incidence | 29% |
| CC(C)[C@@H]1NC(=O)CNC(=O)[C@H](CC(N)=O)NC(=O)[C@H](CCCNC(=N)N)NC(=O)[C@H](Cc2ccc(O)cc2)NC(=O)[C@H](C(C)C)NC(=O)[C@@H](NC(=O)[C@@H](NC(=O)[C@H](CC(N)=O)NC(=O)[C@H](Cc2c[nH]c3ccccc23)NC(=O)[C@H](C)NC(=O)[C@H](Cc2ccccc2)NC(=O)CN)C(C)C)CSSC[C@@H](C(=O)N[C@@H](Cc2c[nH]cn2)C(=O)N[C@@H](CCCNC(=N)N)C(=O)N[C@@H](CCCNC(=N)N)C(=O)N[C@@H](C)C(=O)N[C@@H](CC(N)=O)C(N)=O)NC(=O)[C@H](C(C)C)NC(=O)[C@H](CCCNC(=N)N)NC1=O | circular dichroism, refers to: Parallel | PBS | 80 µM, pH 7.4 |  | secondary structure content | 3% |
| CC1(C)C(/C=C(\Cl)C(F)(F)F)C1C(=O)OC(C#N)c1cccc(Oc2ccccc2)c1 (stereo not shown) | refers to: CYP3A5 | human, age 5 years |  |  | enzyme contribution to clearance | 0.05% |
| C[C@@H](NC(=O)N1C(=O)[C@H](Cc2ccnc(N)c2)[C@H]1C(=O)O)C1CCCCC1 |  | healthy adult Chinese volunteers | continuous intravenous infusion, 0.3 mg/kg/h, 5-day infusion, CTCAE 5.0 grading |  | incidence of elevated neutrophil | 12.5% |
| NC(=O)[C@H]1CCN(c2ncnc(N)c2F)C[C@@H]1N1CCC[C@@H](Nc2cc(Cl)cc(C(F)(F)F)c2)C1=O |  | B-cell malignancy patients | oral, 410 mg twice daily, dose |  | grade ≥3 platelet decrease | 0% |
| Cc1sc2c(c1C)C(c1ccc(Cl)cc1)=N[C@@H](CC(=O)Nc1ccc(O)cc1)c1nnc(C)n1-2 |  | Crl:CD1(ICR) mice, female, plasma | intravenous, 5 µmol/kg |  | AUC(0-last) | 2.63 µM·h |
| Oc1ccc(Cl)c(-c2ccc(Cl)cc2Cl)c1Cl | enantioselective gas chromatography | racemized sample | column temperature 150 °C |  | enantiomeric fraction | 0.52 |
| O=C1Nc2cc3[nH]nc(-c4ccncc4)c3cc2CN1Cc1ccccc1 | CTCAE v4.03 | human, relapsed or refractory advanced solid tumours | intravenous, 6.4 mg/kg |  | patients with subretinal fluid | 22% |
| COc1ccc2nc3cc(Cl)ccc3c(Nc3cc(CN4CCCC4)c(O)c(CN4CCCC4)c3)c2n1 |  | mouse, blood | oral, 57 mg/kg |  | red cell distribution width (CV) | 15.4% |
| COc1ccnc(C(=O)N[C@H]2COC(=O)[C@H](Cc3ccccc3)[C@@H](OC(=O)C(C)C)[C@H](C)OC2=O)c1OCOC(=O)C(C)C | aerobic dark soil incubation | silt loam soil | 20 °C, modelling endpoint |  | DT50 | 5.96 days |
| Cn1cncc1-c1c(F)cncc1NC(=O)c1c(N)nn2cc(F)cnc12 |  | human patients | oral, 270 mg once daily |  | grade ≥3 hyperkalaemia incidence | 0% |
| Cc1ccc(F)c2cc(C(=O)N[C@@H]3CCC[C@H](N4CC[C@H](N(C)S(C)(=O)=O)C4)C3)[nH]c12 |  | CD1 mouse, plasma | intravenous, 1 mg/kg, 0.167 h |  | plasma concentration | 220 ng/mL |
| CN1CC[C@@H](c2c(O)cc(O)c3c(=O)cc(-c4ccc(C(F)(F)F)cc4Cl)oc23)[C@@H]1CO | refers to: Dyspnea | B-cell malignancies | oral, 100 mg, intermittent dosing |  | patients with adverse event | 0% |
| S=c1oc(-c2ccccc2)nn1CN1CCN(Cc2ccccc2)CC1 |  | Wistar rat female | oral, 300 mg/kg, acute toxicity OECD 423 |  | serum ALP | 12.6 ± 1.07 KA/dL |

| Compound | test | system | conditions | scale | quantity | result |
| --- | --- | --- | --- | --- | --- | --- |
| CC(C)[C@H](O)C(=O)N[C@H]1Cc2ccc3c(c2)[C@]2(C4=C(c5nc(CO)co5)N=C(O4)[C@H](C(C)(C)C)NC1=O)c1cc(F)ccc1N[C@@H]2O3 |  | NSG mice, brain | intravenous, 10 mg/kg, single dose at MTD, with: paclitaxel 40 mg/kg |  | AUC(0-t) | 284 ng·h/mL |
| CC(C)Nc1ccnc(Nc2cccc(-c3cccnc3)c2)n1 | refers to: Creatinine | mouse, blood | intraperitoneal, 3 mg/kg |  | blood chemistry | 0.3 mg/dL |
| C[C@]1(CO)Cc2ncn(-c3ccc(C#N)c(Cl)c3)c2C(=O)O1 |  | Japanese subjects | 20 mg single dose |  | drug-related Dizziness incidence | 16.7% |
| C=CC(=O)Nc1cc(Nc2nccc(Nc3cc(Cl)c(F)cc3C(C)(C)O)n2)c(OC)cc1N1CC[C@@H](N(C)C)C1 | treatment-emergent adverse events | human | oral, 100 mg, phase I clinical trial |  | incidence of vomiting | 22.2% |
| O=C(Nc1ccccc1)C1CCN(C(=O)Oc2cccnc2)CC1 | psychotropic effects VAS | healthy women | 60 mg | relative to: pre-dose baseline, direction not given | change in external perception score | 0.2 |
| CC[C@H](C)[C@@H]1NC(=O)[C@@H]2CSSC[C@H](NC(=O)[C@H](CCCNC(=N)N)NC(=O)[C@@H]3CSSC[C@H](NC1=O)C(=O)N[C@@H]([C@@H](C)O)C(=O)N[C@@H](CCCNC(=N)N)C(=O)NCC(=O)N[C@@H](Cc1ccccc1)C(=O)N3)C(=O)N[C@@H](CC(C)C)C(=O)N[C@H]1CSSC[C@H](NC(=O)[C@H](C(C)C)NC(=O)CNC(=O)[C@H](CCCNC(=N)N)NC(=O)[C@H](CCCNC(=N)N)NC1=O)C(=O)N[C@@H](CCCNC(=N)N)C(=O)N2 |  | Sprague-Dawley rats, female, lung | 5 mg/kg | direction not given | increased vein intima score | 1 to 2 |
| C[C@@H]1OC(=O)NN=C1c1ccc(-c2ccc(F)cc2)c(C(F)(F)F)c1 | phase I trial, refers to: back pain all grades | human patients | 10 mg loading then 0.5 mg daily |  | patients with adverse event | 100% |
| C[C@]1(O)C[C@@](N)(c2ccc(-c3nc4n(c3-c3ccccc3)COc3ccncc3-4)cc2)C1 |  | human, advanced or metastatic solid tumours | dose not given, all patients, any grade |  | patients with Rash TEAE | 58.8% |
| COC(=O)C1=CCCN(C)C1 | chronic toxicity | nude mouse | intraperitoneal |  | maximum tolerated dose | 50 mg/kg/day |
| C[C@H](NC(=O)c1c(C(F)F)nn(C)c1Oc1cccc(C(F)(F)F)c1)c1ccc(C(=O)O)cc1 |  | human, plasma | 125 mg, cycle 1 day 8, mean |  | half-life | 11.1 h |
| Clc1ccc(Cl)c(-c2cc(Cl)ccc2Cl)c1 |  | Sprague Dawley rat female, adipose tissue | intraperitoneal, 1 mg/kg, 3 weeks |  | concentration | 55 ng/g |
| CCCCCCCCCCCCCCCC(=O)N[C@@H](CCC(=O)NCCCC[C@H](NC(=O)[C@H](CC(=O)O)NC(=O)[C@H](CO)NC(=O)[C@@H](NC(=O)[C@H](Cc1ccccc1)NC(=O)[C@@H](NC(=O)CNC(=O)[C@H](CCC(N)=O)NC(=O)[C@H](CO)NC(=O)[C@@H](N)Cc1c[nH]cn1)[C@@H](C)O)[C@@H](C)O)C(=O)N[C@@H](CO)C(=O)N[C@@H](CCC(=O)O)C(=O)N[C@@H](Cc1ccc(O)cc1)C(=O)N[C@@H](CC(C)C)C(=O)N[C@@H](CC(=O)O)C(=O)N[C@@H](CO)C(=O)N[C@@H](CCC(=O)O)C(=O)N[C@@H](CCCNC(=N)N)C(=O)N[C@@H](C)C(=O)N[C@@H](CCCNC(=N)N)C(=O)N[C@@H](CC(=O)O)C(=O)N[C@@H](Cc1ccccc1)C(=O)N[C@H](C(=O)N[C@@H](C)C(=O)N[C@@H](Cc1c[nH]c2ccccc12)C(=O)N[C@@H](CC(C)C)C(=O)N[C@@H](CCC(=O)O)C(=O)N[C@@H](C)C(=O)NCC(=O)NCC(=O)O)C(C)C)C(=O)O | refers to: Dizziness | humans CrCl at least 90 mL/min | subcutaneous, 100 µg single dose |  | treatment-related adverse events | 0% |
| COc1ncccc1-c1cnn2ccc(N3CCN(C(=O)OC(C)C)CC3)nc12 |  | mouse nerve ligation model, brain | oral, 3 mg/kg, 120 min after last dose, repeat dosing day 2 |  | drug concentration | 2800 nM |
| COc1cc2c(Oc3ccc4[nH]c(C)cc4c3F)ccnc2cc1OCC1(N)CC1 |  | paediatric recurrent refractory sarcoma | 12 mg |  | grade 1 or 2 Myalgia | 0% |
| COc1ccc(-c2c(-c3ccc(C#N)c(F)c3)nc(N3CCC(N)CC3)n(C)c2=O)cc1F | refers to: wound infection | human patients | oral, dose not given, dose escalation |  | serious TEAE incidence | 2% |

For quick reference, copied from above:
| Compound | test | system | conditions | scale | quantity | result |
| --- | --- | --- | --- | --- | --- | --- |
| O=C(Nc1ccccc1)C1CCN(C(=O)Oc2cccnc2)CC1 | psychotropic effects VAS | healthy women | 60 mg | relative to: pre-dose baseline, direction not given | change in external perception score | 0.2 |
| COc1cc2c(Oc3ccc4[nH]c(C)cc4c3F)ccnc2cc1OCC1(N)CC1 |  | paediatric recurrent refractory sarcoma | 12 mg |  | grade 1 or 2 Myalgia | 0% |
